{"data": "Assay results gathered from unrelated publications", "note": "A part holds a random share of what one study measured.", "sequence of UniProt Q96SB4 (whole entry, looked up)": "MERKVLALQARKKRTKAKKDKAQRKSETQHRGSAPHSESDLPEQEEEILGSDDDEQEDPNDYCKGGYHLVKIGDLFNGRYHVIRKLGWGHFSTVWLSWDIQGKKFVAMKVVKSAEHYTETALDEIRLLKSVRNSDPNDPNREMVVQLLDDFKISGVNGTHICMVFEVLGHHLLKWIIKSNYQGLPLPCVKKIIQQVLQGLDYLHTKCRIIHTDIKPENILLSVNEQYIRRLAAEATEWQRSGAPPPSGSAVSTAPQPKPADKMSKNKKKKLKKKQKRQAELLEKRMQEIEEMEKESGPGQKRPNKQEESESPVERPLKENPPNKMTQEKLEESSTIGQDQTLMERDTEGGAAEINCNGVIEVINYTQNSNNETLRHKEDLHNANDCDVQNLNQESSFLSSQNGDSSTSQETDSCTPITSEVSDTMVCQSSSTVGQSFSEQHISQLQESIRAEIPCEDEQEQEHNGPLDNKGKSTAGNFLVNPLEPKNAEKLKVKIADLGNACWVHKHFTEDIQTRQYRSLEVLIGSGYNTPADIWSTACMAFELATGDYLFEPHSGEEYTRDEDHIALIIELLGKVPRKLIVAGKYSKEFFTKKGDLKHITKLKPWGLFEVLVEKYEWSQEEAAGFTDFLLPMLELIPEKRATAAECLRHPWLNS", "sequence of UniProt Q04771 (whole entry, looked up)": "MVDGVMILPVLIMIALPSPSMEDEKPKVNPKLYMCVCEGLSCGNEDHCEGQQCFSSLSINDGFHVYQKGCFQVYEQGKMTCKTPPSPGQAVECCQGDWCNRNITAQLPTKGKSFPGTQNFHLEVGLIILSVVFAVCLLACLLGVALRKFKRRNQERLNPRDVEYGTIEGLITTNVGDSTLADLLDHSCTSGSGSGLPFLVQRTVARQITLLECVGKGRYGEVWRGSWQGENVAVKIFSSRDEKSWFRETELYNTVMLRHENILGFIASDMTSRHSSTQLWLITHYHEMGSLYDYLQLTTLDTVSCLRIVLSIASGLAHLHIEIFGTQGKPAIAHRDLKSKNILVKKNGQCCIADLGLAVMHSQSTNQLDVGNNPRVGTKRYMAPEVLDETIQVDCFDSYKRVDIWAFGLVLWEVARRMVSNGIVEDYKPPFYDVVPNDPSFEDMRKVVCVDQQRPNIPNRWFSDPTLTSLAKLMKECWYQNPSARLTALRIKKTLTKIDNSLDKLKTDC"}
{"data": "Study 1", "target": "Fragile X messenger ribonucleoprotein 1, C-terminal low-complexity region (Fmr1, Mus musculus, UniProt P35922)", "technique": "RNA Bind-n-Seq", "molecule type": "RNA", "medium": "in vitro", "tested at": "200 nM", "notes": "whole 134-nt RNA, ends assumed", "added": "150 mM KCl", "relative to": "input library", "direction": "higher = stronger binding", "shared flanks, not repeated": "GGGAGUUCUACAGUCCGACGAUC … UGGAAUUCUCGGGUGUCAAGG"}
{"Strand": "CUGUGCUACACAUCGUAUGUACCGAAUCGGGCCCCCCCGGGGCCCCCCCGGGCCCCCCCGGGAAAGUAUUAUGUUACGCCGUUCGGAUCU", "log2 enrichment": -1.23}
{"Strand": "UCCUGUGCUACACAUCGUAUGUACCGAAUCGGAAAAAAGGGAAAAAAGGGGAAAAAAGGAAAGUAUUAUGUUACGCCGUUCGGAUCUGCA", "log2 enrichment": -0.644}
{"Strand": "AGUCCUGUGCUACACAUCGUAUGUACCGAAUCGGGUUUUUUUGGGAAAGGGUUUGGGAAAGUAUUAUGUUACGCCGUUCGGAUCUGCACU", "log2 enrichment": 0.218}
{"Strand": "UGGCCCUGGUGGCAUGCGGGGAAGAAGAGGUGGCCUCAUGGAUCGUGGUGGUCCCGGUGGAAUGUUCAGAGGUGGCCGUGGUGGAGACAG", "log2 enrichment": 0.0881}
{"Strand": "AAGUCCUGUGCUACACAUCGUAUGUACCGAAUCGGGGUUUGGGGUUUGGGUUUGGGGAAAGUAUUAUGUUACGCCGUUCGGAUCUGCACU", "log2 enrichment": 0.738}
{"Strand": "ACCAUGCGGGUGGGCAUCUUUGGGAAGUGGGGCAAGGGGGGGAUAGGGAGGGGGGUAACACUUUGGGAACAGGUGGUCCCAGGUCGUUUC", "log2 enrichment": 0.422}
{"Strand": "CACAGACAACACGCACCCACACAGACACAGAGGGAAGGGAUUGGGAUGGGGACAGGGUGCACAGCAGGGCGGGGUAGGACCCCAGCCCCU", "log2 enrichment": 1.27}
{"Strand": "CCUGUGCUACACAUCGUAUGUACCGAAUCAAAUUUUUAAAUUUUUUUAAACCCCCCCAAAAAAGUAUUAUGUUACGCCGUUCGGAUCUGC", "log2 enrichment": 0.155}
{"data": "Study 2", "target": "Hepatocyte nuclear factor 3-beta, forkhead domain (FOXA2, Homo sapiens, UniProt Q9Y261, residues 142-269)", "technique": "protein-binding microarray", "molecule type": "hairpin DNA", "medium": "in vitro", "tested at": "not given", "notes": "whole hairpin DNA, median over replicate spots", "relative to": "not given", "direction": "higher = stronger binding", "Target sequence (chain)": "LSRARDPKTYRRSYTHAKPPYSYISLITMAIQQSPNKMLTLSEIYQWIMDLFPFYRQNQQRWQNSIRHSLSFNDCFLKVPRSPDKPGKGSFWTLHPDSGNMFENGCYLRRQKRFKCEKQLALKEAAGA"}
{"Strand": "GAGGCCATGTTAACAACGCCTCCTGGCGTTGTTAACATGGCCTCACACTC", "median fluorescence [a.u.]": 3050}
{"Strand": "GAGGCCTTGTAAACAACGCCTCCTGGCGTTGTTTACAAGGCCTCACACTC", "median fluorescence [a.u.]": 3430}
{"Strand": "GAGGCCATCCAAACAACGCCTCCTGGCGTTGTTTGGATGGCCTCACACTC", "median fluorescence [a.u.]": 3220}
{"Strand": "GAGGCCCGGCAAACAACGCCTCCTGGCGTTGTTTGCCGGGCCTCACACTC (5mC at 7 37)", "median fluorescence [a.u.]": 3760}
{"Strand": "GAGGCCATGCAAACAACGCCTCCTGGCGTTGTTTGCATGGCCTCACACTC (5mC at 17)", "median fluorescence [a.u.]": 3780}
{"Strand": "GAGGCCATGTAAGCAACGCCTCCTGGCGTTGCTTACATGGCCTCACACTC", "median fluorescence [a.u.]": 3170}
{"Strand": "GAGGCCATGTCGACAACGCCTCCTGGCGTTGTCGACATGGCCTCACACTC (5mC at 11 33)", "median fluorescence [a.u.]": 3360}
{"Strand": "GAGGCCATGCAACGAACGCCTCCTGGCGTTCGTTGCATGGCCTCACACTC (5mC at 31)", "median fluorescence [a.u.]": 3450}
{"data": "Mixed results"}
{"Structure (SMILES)": "CC1=C(C#N)[C@@H](c2ccc3[nH]nc(C)c3c2)C(C#N)=C(c2ccc(Cl)cc2)N1", "target": "Activin receptor type-1 (ACVR1, Homo sapiens, UniProt Q04771)", "test": "cell-free assay, competition with immobilised ligand", "setting": "1 µM", "endpoint": "remaining binding", "value": "100%"}
{"Structure (SMILES)": "COc1cc2c(Nc3ccc(Br)cc3F)ncnc2cc1OCC1CCN(C)CC1", "target": "SRSF protein kinase 1 (SRPK1, Homo sapiens, UniProt Q96SB4)", "test": "enzyme activity, inhibitor", "setting": "0.5 µM", "how to read": "relative to: control", "endpoint": "remaining activity", "value": "97.9%"}
